Experimental data from different studies.
Each numbered part is a random draw from the data of one study; scales do not carry over between parts.

Study 1 — method: aptamer microarray, sandwich; form: DNA with 2'F-ANA; matrix: in vitro; tested at: 200 nM; added: Cy3 exosite-II aptamer, 400 nM; reading: higher = stronger binding; strand: GGTTGGTGTGGTTGG
Target: Prothrombin, mature alpha-thrombin (F2, Homo sapiens, UniProt P00734)
Notes: whole 15-mer aptamer, many near background
`2'F-ANA at 1 2 3 5 7 11 15`: “mean fluorescence intensity” 55.1 a.u.
`2'F-ANA at 1 4 5 6 8 11 13 15`: “mean fluorescence intensity” 56.1 a.u.
For `2'F-ANA at 1 6 7 8 9 10 15`, “mean fluorescence intensity” read 59.3 a.u.
Under “mean fluorescence intensity”, `2'F-ANA at 3 4 7 8 9 10 12 13 14` is recorded as 206 a.u.
`2'F-ANA at 2 3 4 6 7 9 14`: “mean fluorescence intensity” 224 a.u.
`2'F-ANA at 4 6 7 12 14`: “mean fluorescence intensity” 119 a.u.
`2'F-ANA at 1 3 8 10 13` — result for “mean fluorescence intensity”: 258 a.u.
`2'F-ANA at 2 3 7 8 10 12 13 15` — result for “mean fluorescence intensity”: 387 a.u.
`2'F-ANA at 1 2 3 5 6 7 9 10 13 14` — result for “mean fluorescence intensity”: 42.5 a.u.
For `2'F-ANA at 2 4 5 8 9 10 11 12 13 14 15`, “mean fluorescence intensity” read 48.3 a.u.
Under “mean fluorescence intensity”, `2'F-ANA at 1 2 3 5 7 9 10` is recorded as 47.5 a.u.
Under “mean fluorescence intensity”, `2'F-ANA at 2 3 4 12 13 14 15` is recorded as 293 a.u.
For `2'F-ANA at 1 3 5 12 14`, “mean fluorescence intensity” read 45.3 a.u.
Under “mean fluorescence intensity”, `2'F-ANA at 1 3 6 9 12 13 14` is recorded as 174 a.u.
`2'F-ANA at 1 2 3 4 8 9 11 14`: “mean fluorescence intensity” 77.6 a.u.
`2'F-ANA at 1 5 6 8 10 11 13 14` — result for “mean fluorescence intensity”: 48 a.u.

Study 2 — method: competition protein-binding microarray; form: double-stranded DNA, one strand shown; matrix: in vitro; tested at: 2 µM; added: Pho4 competitor, 0.05 µM; reading: higher = stronger binding; all sequences stand within: … GTCTTGATTCGCTTGACGCTGCTG
Target: Centromere-binding protein 1, full length, His-tagged (CBF1, Saccharomyces cerevisiae, UniProt P17106, residues 1-351)
UniProt P17106, sequence (whole entry, looked up): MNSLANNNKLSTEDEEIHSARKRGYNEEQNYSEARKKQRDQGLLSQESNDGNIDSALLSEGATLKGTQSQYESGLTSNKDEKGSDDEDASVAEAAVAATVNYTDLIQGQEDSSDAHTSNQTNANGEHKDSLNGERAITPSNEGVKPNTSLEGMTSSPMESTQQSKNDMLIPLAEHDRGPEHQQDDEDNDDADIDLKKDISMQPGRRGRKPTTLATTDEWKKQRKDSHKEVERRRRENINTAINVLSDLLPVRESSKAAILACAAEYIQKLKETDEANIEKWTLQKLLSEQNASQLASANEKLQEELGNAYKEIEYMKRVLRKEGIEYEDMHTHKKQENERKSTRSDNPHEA
Notes: whole 60-bp probe, lowest competitor level
`CATACCCAACCTTGAGTTGTGGGTGAAGATATTTGT` has a fluorescence intensity of 68.9 a.u.
`CGATGGATATATTGTCATGCGGATGCATTTTGGCTG` gave a fluorescence intensity of 205 a.u.
`TATACCTTTGTTCGTCACGTGAACCAACAGAACATG` has a fluorescence intensity of 6930 a.u.
The fluorescence intensity of `CTCGTTACTACCCATCACGTGTCGGATCCCTCGCGA` is reported as 3850 a.u.
For `AAATTACTAAGTTGTCACGGCACTTACCCCGTATGA`, the fluorescence intensity was 83.6 a.u.
The fluorescence intensity of `GAATTTTGCGTTCCGCACGTTTCTCAAGTACATAAT` is reported as 123 a.u.
With `GACTTTAGCTGCAACGGCGTGGGTATGCCGCAGCGG` the fluorescence intensity was 70.4 a.u.
For `TATTTTTTTTTTTTTTATTTTGGTAGAATAGATTAC`, the fluorescence intensity was 102 a.u.
`GTCTTGTCTCATTTTCACGTGAATTTCCCCACTTCA` gave a fluorescence intensity of 708 a.u.
For `CCTTTTGGTCTTCAACACGTTCAGCCTTGATTTCCT`, the fluorescence intensity was 93.2 a.u.
The fluorescence intensity of `TGCGCAACAACTTGCCGAGTGGGTGTATGTCTAGAA` is reported as 60.2 a.u.
The fluorescence intensity of `TCAATAAAATCAAGTCATTCATTGATACGAAGTTGA` is reported as 84.3 a.u.
`CTTCTGCTATGGATGCACGTGAACGCTCTATTCAAC` has a fluorescence intensity of 1660 a.u.
The fluorescence intensity of `CTTTCCCGATCTTGATTGGTGGGTGTAGCACATTTG` is reported as 63.6 a.u.
`TTGAACTGCTGGGATCGGATGACGTTTTGGAGGAAG` gave a fluorescence intensity of 68.7 a.u.
`CTTCTGTAAATTTGGTAGGTGGGTGGACGCGCCCCG` has a fluorescence intensity of 72.5 a.u.
With `CATACCCAACCTTGTCACGCCACTTAAGATATTTGT` the fluorescence intensity was 344 a.u.
The fluorescence intensity of `CTAGGGCACCTCCGTCACCTGGCTTTTCTTCAACTT` is reported as 71.1 a.u.
The fluorescence intensity of `CCCACAAAGGGGCGCCGCGTGGTGATACGTACTGGA` is reported as 60.3 a.u.

Study 3 — method: RNA Bind-n-Seq; form: RNA; matrix: in vitro; tested at: 365 nM; relative to: no-protein control; reading: higher = stronger binding
Target: RNA binding protein fox-1 homolog 2, RRM domain, GST-SBP tag (RBFOX2, Homo sapiens, UniProt O43251-10, residues 100-194)
Notes: natural RNA segment, single round, ends assumed
All sequences stand within: GGGAGUUCUACAGUCCGACGAUC … UGGAAUUCUCGGGUGCCAA
`CCCCAGUGGUGGCAGCUGUUCCAUGCCUGCUCUGUUUCAGCUCUUCUGAGACAGGGAGGAGGAGCCAAGGGAGCUGUGAAGGGGAGGGGCAGGAGGACUCUUGCAGGGUU`: “RBNS enrichment (R)” 0.483.
`UGCAUAAUUCUGCAGAUGUCCUAGGGUUUGAGUCAGUAACUUGUGAAUGAAAGUCAUUGGUAUUUGGCUUUGUGGUUACAGUACUAAUUUUACUUUGCUGCUCAGUUUUG`: “RBNS enrichment (R)” 0.589.
Under “RBNS enrichment (R)”, `AAUGCUAUACUGUCAAGGUACUUGCUUGUGUCUGAACUCUAGUGCACUUAUGAUUUUGUAGACCAUGUGAAAUUUAAUAAGAUACCUUUUUUUUCCUUUCUUUGUGUGUA` is recorded as 0.371.
For `CAUCCCCAAGAUGAGAGGCGAGCAUCCUGCCGAGUGAGCCUGCAGCAACAGCUCCUGAGGAAGGUGCCGGGAGGGGUGUCGCCUCUUCACGAGUGUUCUCCAGAGAAUCA`, “RBNS enrichment (R)” read 0.366.
`GCCGCCUGGGGAGUGAGCCAGCCUGCAUCCCCGGCAGAGGAACUGGUGCCUGCCUUUGUCUGUGAGCUCAUUCCCACUGUUACCCUGAGCUGGCCCAAUGGAGCCUUACA`: “RBNS enrichment (R)” 2.63.
`CCUGACAUGUGUUUAAUAUUCCUCCUGCUUUUACAGAUUCUGACGUUUUCUUGAUAAUUGUAAGCUUGAGAGUGUUUGUGGAAGAACUUACUUUCUUCUUAUGUAUACAU` — result for “RBNS enrichment (R)”: 0.491.
For `AGCAAGAUACUAGUUCUUUGAUACUUUGAGAGGCGCUUUGAUUACCCCGAUUGAAGUCUCUGAAACUUUCCUAUGGUUUUCUGUAUUAUAUGUCUGGAUGGAGCUGUUUA`, “RBNS enrichment (R)” read 0.41.
`UUCCCUAAUGUGUUUUGUAUGUGGUUAUAAAAUUGUAGACUUUUGUGAUUUUGCCAAAGUUGUAGCUAAAUAUUUAUACACUUGUCUUGAAUUUUUUUCAGAUCCACUUA` — result for “RBNS enrichment (R)”: 0.802.

Study 4 — method: RNA Bind-n-Seq; form: RNA; matrix: in vitro; tested at: 200 nM; notes: whole 134-nt RNA, ends assumed; added: 150 mM KCl; relative to: input library; reading: higher = stronger binding
Target: Fragile X messenger ribonucleoprotein 1, C-terminal low-complexity region (Fmr1, Mus musculus, UniProt P35922)
All sequences stand within: GGGAGUUCUACAGUCCGACGAUC … UGGAAUUCUCGGGUGUCAAGG
`CCUGUGCUACACAUCGUAUGUACCGAAUCGGAAAAAAAGGGAAAAAAAGGAAAAAAAGGGAAAGUAUUAUGUUACGCCGUUCGGAUCUGC` has a log2 enrichment of -0.769.
`CUGUGCUACACAUCGUAUGUACCGAAUCGGGGCCCCCCCGGCCCCCCCGGCCCCCCCGGGGAAAGUAUUAUGUUACGCCGUUCGGAUCUG` has a log2 enrichment of -0.916.
With `AAGUCCUGUGCUACACAUCGUAUGUACCGAAUCGGUUUUGGGGUUUUGGGUUUUGGGAAAGUAUUAUGUUACGCCGUUCGGAUCUGCACU` the log2 enrichment was 0.0631.
`CACAGACAACACGCACCCACACAGACACAGAGGGAAGGGGUUGGGAUGGGGACAGGGUACACAGCAGGGCGGGGUAGGACCCCAGCCCCU` gave a log2 enrichment of 1.14.
For `AGUCCUGUGCUACACAUCGUAUGUACCGAAUCAAACCCAAACCCCCAAAUUUUUAAAAAAGUAUUAUGUUACGCCGUUCGGAUCUGCACU`, the log2 enrichment was -0.18.
For `CCUCAAGUCCUGUGCUACACAUCGUAUGUACCGAAUCGGGGCGGGCGGGGCGGAAAGUAUUAUGUUACGCCGUUCGGAUCUGCACUUCCA`, the log2 enrichment was 0.997.
For `UGGGAGGUGGAUUUUGUUUAUUUUUUUAGCUCAUUUCCAGGGGUGGGAAUUUUUUUUUAAUAUGUGUCAUGAAUAAAGUCGUUUUUGAAA`, the log2 enrichment was 0.27.
`CCUCAAGUCCUGUGCUACACAUCGUAUGUACCGAAUCGGGGAGGAGGGGAGGGAAAGUAUUAUGUUACGCCGUUCGGAUCUGCACUUCCA` gave a log2 enrichment of 1.27.
`AAGUCCUGUGCUACACAUCGUAUGUACCGAAUCGGAAAGGUUUUUGGUUUUUUUGGAAAGUAUUAUGUUACGCCGUUCGGAUCUGCACUU` has a log2 enrichment of -1.12.

Repeated from above (study 3):
`CCCCAGUGGUGGCAGCUGUUCCAUGCCUGCUCUGUUUCAGCUCUUCUGAGACAGGGAGGAGGAGCCAAGGGAGCUGUGAAGGGGAGGGGCAGGAGGACUCUUGCAGGGUU`: “RBNS enrichment (R)” 0.483.
`UGCAUAAUUCUGCAGAUGUCCUAGGGUUUGAGUCAGUAACUUGUGAAUGAAAGUCAUUGGUAUUUGGCUUUGUGGUUACAGUACUAAUUUUACUUUGCUGCUCAGUUUUG`: “RBNS enrichment (R)” 0.589.
Under “RBNS enrichment (R)”, `AAUGCUAUACUGUCAAGGUACUUGCUUGUGUCUGAACUCUAGUGCACUUAUGAUUUUGUAGACCAUGUGAAAUUUAAUAAGAUACCUUUUUUUUCCUUUCUUUGUGUGUA` is recorded as 0.371.
For `CAUCCCCAAGAUGAGAGGCGAGCAUCCUGCCGAGUGAGCCUGCAGCAACAGCUCCUGAGGAAGGUGCCGGGAGGGGUGUCGCCUCUUCACGAGUGUUCUCCAGAGAAUCA`, “RBNS enrichment (R)” read 0.366.
`GCCGCCUGGGGAGUGAGCCAGCCUGCAUCCCCGGCAGAGGAACUGGUGCCUGCCUUUGUCUGUGAGCUCAUUCCCACUGUUACCCUGAGCUGGCCCAAUGGAGCCUUACA`: “RBNS enrichment (R)” 2.63.
`CCUGACAUGUGUUUAAUAUUCCUCCUGCUUUUACAGAUUCUGACGUUUUCUUGAUAAUUGUAAGCUUGAGAGUGUUUGUGGAAGAACUUACUUUCUUCUUAUGUAUACAU` — result for “RBNS enrichment (R)”: 0.491.
For `AGCAAGAUACUAGUUCUUUGAUACUUUGAGAGGCGCUUUGAUUACCCCGAUUGAAGUCUCUGAAACUUUCCUAUGGUUUUCUGUAUUAUAUGUCUGGAUGGAGCUGUUUA`, “RBNS enrichment (R)” read 0.41.
`UUCCCUAAUGUGUUUUGUAUGUGGUUAUAAAAUUGUAGACUUUUGUGAUUUUGCCAAAGUUGUAGCUAAAUAUUUAUACACUUGUCUUGAAUUUUUUUCAGAUCCACUUA` — result for “RBNS enrichment (R)”: 0.802.
